Experimental data from different studies.
A part holds a random share of what one study measured. Several values in a cell are separate wells, animals, samples, runs or records.
Chain of UniProt Q8TD19 (whole entry, looked up): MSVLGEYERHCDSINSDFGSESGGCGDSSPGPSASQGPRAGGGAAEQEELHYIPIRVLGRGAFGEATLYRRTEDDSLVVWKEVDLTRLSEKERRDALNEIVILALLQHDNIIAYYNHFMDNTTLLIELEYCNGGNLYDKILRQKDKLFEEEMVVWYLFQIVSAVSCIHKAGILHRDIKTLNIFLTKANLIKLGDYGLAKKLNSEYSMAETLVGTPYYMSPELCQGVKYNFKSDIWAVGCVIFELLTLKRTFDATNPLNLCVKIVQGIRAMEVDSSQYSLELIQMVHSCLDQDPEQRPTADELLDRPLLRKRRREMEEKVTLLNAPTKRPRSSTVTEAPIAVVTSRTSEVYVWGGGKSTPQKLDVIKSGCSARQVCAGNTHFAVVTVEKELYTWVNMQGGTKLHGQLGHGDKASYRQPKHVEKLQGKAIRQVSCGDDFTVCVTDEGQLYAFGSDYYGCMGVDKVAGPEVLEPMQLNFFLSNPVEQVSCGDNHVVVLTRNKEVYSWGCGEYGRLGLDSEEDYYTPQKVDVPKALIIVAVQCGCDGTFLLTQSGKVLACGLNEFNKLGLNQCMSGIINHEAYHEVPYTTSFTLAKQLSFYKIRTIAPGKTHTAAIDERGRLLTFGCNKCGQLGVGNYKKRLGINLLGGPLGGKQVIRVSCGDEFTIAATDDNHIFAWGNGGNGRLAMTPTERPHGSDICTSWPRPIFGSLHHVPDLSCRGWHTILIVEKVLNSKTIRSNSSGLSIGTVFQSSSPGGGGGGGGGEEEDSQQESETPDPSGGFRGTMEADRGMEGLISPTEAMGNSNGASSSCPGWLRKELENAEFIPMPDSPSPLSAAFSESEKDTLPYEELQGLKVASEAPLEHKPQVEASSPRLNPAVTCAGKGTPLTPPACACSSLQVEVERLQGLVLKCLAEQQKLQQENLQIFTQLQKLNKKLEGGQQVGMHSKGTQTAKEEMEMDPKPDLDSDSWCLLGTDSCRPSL
Chain of UniProt P21917 (whole entry, looked up): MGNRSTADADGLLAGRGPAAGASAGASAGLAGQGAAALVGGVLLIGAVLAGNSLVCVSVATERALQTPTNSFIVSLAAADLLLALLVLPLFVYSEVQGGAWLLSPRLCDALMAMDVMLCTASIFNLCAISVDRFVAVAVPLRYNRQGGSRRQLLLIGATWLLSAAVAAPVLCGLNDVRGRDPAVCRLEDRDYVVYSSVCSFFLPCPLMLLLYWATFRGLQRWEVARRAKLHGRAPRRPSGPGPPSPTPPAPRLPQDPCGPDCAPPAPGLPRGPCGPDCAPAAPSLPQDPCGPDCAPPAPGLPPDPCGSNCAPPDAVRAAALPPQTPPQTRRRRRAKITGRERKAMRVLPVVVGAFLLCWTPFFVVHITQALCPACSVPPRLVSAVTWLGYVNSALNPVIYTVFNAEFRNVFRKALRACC
Chain of UniProt O14965 (whole entry, looked up): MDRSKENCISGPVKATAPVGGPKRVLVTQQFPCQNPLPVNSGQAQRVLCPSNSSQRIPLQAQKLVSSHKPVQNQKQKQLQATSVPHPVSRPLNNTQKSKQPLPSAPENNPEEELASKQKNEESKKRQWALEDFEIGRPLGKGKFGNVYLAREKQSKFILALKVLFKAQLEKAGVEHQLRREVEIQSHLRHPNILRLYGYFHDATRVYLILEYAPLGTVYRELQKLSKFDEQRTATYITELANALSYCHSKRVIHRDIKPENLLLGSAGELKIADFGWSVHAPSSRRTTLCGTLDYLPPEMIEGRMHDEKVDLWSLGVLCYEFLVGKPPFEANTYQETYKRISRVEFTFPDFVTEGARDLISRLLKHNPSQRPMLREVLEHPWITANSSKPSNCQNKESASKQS
Chain of UniProt Q8TDC3 (whole entry, looked up): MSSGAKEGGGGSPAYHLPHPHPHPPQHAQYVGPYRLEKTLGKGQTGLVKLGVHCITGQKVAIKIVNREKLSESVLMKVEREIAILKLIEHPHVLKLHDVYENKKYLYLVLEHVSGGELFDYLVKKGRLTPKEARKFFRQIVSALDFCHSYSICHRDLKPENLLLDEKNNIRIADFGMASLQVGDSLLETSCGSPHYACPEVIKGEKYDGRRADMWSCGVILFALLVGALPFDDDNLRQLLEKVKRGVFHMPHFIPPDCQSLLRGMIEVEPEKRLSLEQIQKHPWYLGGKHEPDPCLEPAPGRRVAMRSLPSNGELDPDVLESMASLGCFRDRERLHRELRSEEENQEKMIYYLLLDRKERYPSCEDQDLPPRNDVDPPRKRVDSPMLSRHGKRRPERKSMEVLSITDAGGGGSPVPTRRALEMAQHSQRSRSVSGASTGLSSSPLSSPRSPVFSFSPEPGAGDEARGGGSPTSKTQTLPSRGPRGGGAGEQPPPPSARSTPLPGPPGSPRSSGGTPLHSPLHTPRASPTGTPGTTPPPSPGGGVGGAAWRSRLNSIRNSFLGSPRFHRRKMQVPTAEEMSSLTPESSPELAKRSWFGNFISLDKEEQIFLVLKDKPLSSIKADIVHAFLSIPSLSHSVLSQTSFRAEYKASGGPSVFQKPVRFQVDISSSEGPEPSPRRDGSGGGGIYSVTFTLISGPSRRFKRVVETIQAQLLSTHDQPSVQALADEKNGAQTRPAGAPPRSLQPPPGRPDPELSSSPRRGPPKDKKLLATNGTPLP
Chain of UniProt P07949 (whole entry, looked up): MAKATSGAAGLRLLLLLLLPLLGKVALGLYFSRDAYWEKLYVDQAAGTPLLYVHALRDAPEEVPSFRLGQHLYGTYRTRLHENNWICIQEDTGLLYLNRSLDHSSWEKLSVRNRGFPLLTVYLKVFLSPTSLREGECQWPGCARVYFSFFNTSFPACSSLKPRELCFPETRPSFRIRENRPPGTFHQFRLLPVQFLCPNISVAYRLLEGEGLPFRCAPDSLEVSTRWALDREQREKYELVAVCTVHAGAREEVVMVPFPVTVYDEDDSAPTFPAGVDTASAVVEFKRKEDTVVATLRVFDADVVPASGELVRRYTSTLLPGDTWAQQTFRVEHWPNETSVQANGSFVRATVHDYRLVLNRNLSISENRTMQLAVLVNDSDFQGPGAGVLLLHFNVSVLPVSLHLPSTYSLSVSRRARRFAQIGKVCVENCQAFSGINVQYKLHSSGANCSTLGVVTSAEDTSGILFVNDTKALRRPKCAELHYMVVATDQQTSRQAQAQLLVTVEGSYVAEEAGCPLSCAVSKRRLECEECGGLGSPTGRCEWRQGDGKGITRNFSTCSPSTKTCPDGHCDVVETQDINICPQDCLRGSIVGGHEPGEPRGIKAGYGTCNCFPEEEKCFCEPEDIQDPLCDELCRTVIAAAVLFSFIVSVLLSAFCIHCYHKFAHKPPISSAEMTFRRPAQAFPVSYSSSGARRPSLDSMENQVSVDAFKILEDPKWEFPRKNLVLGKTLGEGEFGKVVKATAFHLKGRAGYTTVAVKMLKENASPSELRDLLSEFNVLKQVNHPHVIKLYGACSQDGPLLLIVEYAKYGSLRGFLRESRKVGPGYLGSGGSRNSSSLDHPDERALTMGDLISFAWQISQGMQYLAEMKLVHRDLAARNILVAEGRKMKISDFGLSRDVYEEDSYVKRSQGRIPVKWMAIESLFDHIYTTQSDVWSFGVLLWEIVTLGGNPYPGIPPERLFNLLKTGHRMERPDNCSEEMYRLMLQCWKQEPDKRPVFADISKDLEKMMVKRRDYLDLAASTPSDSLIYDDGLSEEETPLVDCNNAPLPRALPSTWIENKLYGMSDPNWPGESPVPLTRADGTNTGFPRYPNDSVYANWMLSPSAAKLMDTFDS
Chain of UniProt P08913 (whole entry, looked up): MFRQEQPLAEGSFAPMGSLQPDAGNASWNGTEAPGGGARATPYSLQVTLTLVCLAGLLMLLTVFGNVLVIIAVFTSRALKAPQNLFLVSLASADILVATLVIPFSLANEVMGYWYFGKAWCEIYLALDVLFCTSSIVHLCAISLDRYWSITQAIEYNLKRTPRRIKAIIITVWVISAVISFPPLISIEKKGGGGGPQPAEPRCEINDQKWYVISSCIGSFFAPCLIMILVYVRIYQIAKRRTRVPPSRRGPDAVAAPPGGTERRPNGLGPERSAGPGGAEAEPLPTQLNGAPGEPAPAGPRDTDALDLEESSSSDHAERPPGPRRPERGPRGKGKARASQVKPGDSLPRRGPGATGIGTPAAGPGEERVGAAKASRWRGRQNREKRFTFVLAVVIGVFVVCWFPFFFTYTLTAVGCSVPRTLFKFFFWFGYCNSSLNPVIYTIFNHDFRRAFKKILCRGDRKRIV
Chain of UniProt P50406 (whole entry, looked up): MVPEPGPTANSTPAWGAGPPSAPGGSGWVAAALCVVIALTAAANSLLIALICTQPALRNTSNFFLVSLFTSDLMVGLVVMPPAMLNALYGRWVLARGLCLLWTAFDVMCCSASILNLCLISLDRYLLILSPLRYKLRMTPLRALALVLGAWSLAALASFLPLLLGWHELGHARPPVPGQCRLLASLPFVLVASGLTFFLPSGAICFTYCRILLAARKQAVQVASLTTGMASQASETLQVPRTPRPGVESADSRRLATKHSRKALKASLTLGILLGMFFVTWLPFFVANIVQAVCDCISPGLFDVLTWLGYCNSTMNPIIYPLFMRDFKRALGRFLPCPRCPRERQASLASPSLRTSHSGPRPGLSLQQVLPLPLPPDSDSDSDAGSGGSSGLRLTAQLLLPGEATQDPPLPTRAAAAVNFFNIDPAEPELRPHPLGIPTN
Chain of UniProt Q8IU85 (whole entry, looked up): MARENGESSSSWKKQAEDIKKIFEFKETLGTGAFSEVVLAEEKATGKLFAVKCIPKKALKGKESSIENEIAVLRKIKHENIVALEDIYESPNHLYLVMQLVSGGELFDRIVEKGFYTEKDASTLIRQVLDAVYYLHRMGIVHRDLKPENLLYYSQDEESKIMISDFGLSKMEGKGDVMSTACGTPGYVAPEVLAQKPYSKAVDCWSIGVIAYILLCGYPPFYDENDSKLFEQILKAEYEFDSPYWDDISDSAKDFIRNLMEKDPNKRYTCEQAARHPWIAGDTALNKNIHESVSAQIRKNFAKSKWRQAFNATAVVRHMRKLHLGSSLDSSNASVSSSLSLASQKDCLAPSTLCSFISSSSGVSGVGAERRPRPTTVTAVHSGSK

Study 1
SMILES: Cn1nc(C(F)(F)F)cc1-c1cnc(N2CCc3cc(S(=O)(=O)Nc4c(F)cc(Cl)cc4F)cc(N4CCCC4=O)c32)nc1
Effect on: cell-free assay
Concentration: 10 µM
Quantity: inhibition
D(4) dopamine receptor (DRD4, Homo sapiens, UniProt P21917): 9.09%
Alpha-1A adrenergic receptor (ADRA1A, Homo sapiens, UniProt P35348): 6.96%
Sigma non-opioid intracellular receptor 1 (SIGMAR1, Homo sapiens, UniProt Q99720): 12.8%
5-hydroxytryptamine receptor 7 (HTR7, Homo sapiens, UniProt P34969): 4.51%
Alpha-1B adrenergic receptor (ADRA1B, Homo sapiens, UniProt P35368): 4.33%
Beta-3 adrenergic receptor (ADRB3, Homo sapiens, UniProt P13945): -11.8%
Alpha-2A adrenergic receptor (ADRA2A, Homo sapiens, UniProt P08913): -9.1%
Sigma intracellular receptor 2 (TMEM97, Homo sapiens, UniProt Q5BJF2): -27.8%
5-hydroxytryptamine receptor 6 (HTR6, Homo sapiens, UniProt P50406): 6.67%

Study 2
Structure (SMILES): CC(C)(C(=O)O)[C@H](NC(=O)Cc1cccc(I)c1)c1ccc2oc(=O)[nH]c2c1
Technique: Incucyte 3D growth
Concentration: 30 µM
Direction: higher = more growth
Quantity: spheroid area
A375; 174 h: 8.98e+07 a.u. and 1.02e+08 a.u. and 1.01e+08 a.u. and 1.08e+08 a.u. and 1.04e+08 a.u. and 1.24e+08 a.u.
MEL-JUSO; 54.52 h: 1.24e+07 a.u. and 1.35e+07 a.u. and 1.3e+07 a.u. and 1.27e+07 a.u. and 8.56e+06 a.u. and 1.61e+07 a.u.
IPC-298; 174 h: 2.74e+07 a.u. and 3.41e+07 a.u. and 2.13e+07 a.u. and 2.73e+07 a.u. and 2.64e+07 a.u. and 3e+07 a.u.
KP-4; 60 h: 1.51e+07 a.u. and 1.27e+07 a.u. and 1.45e+07 a.u. and 1.35e+07 a.u. and 1.65e+07 a.u. and 1.55e+07 a.u.
IPC-298; 186 h: 3.05e+07 a.u. and 2.81e+07 a.u. and 2.68e+07 a.u. and 3.6e+07 a.u. and 2.16e+07 a.u. and 2.6e+07 a.u.
NCI-H1437; 66 h: 2.41e+07 a.u. and 2.77e+07 a.u. and 2.74e+07 a.u. and 2.95e+07 a.u. and 2.81e+07 a.u.

Study 3
SMILES: NC(=O)c1ccc(N(C(N)=O)c2c(F)cccc2F)nc1-c1ccc(F)cc1F
Effect on: enzyme activity
Action: inhibitor
Concentration: 0.5 µM
Relative to: control
Quantity: remaining activity
Calcium/calmodulin-dependent protein kinase type 1G (CAMK1G, Homo sapiens, UniProt Q96NX5): 108%
Mitogen-activated protein kinase kinase kinase 2 (MAP3K2, Homo sapiens, UniProt Q9Y2U5): 122%
Aurora kinase A (AURKA, Homo sapiens, UniProt O14965): 86.4%
Serine/threonine-protein kinase D1 (PRKD1, Homo sapiens, UniProt Q15139): 97.7%
Epidermal growth factor receptor (EGFR, Homo sapiens, UniProt P00533): 92.7%
Mitogen-activated protein kinase 10 (MAPK10, Homo sapiens, UniProt P53779): 98.4%
Homeodomain-interacting protein kinase 3 (HIPK3, Homo sapiens, UniProt Q9H422): 98.4%
Rho-associated protein kinase 2 (ROCK2, Homo sapiens, UniProt O75116): 97.7%
Serine/threonine-protein kinase Nek9 (NEK9, Homo sapiens, UniProt Q8TD19): 104%
Calcium/calmodulin-dependent protein kinase type 1D (CAMK1D, Homo sapiens, UniProt Q8IU85): 114%
Protein-tyrosine kinase 2-beta (PTK2B, Homo sapiens, UniProt Q14289): 102%
Cyclin-dependent kinase 7 (CDK7, Homo sapiens, UniProt P50613): 102%
Cyclin-dependent kinase 2, with cyclin A (CDK2, Homo sapiens, UniProt P24941): 87.8%
Serine/threonine-protein kinase N2 (PKN2, Homo sapiens, UniProt Q16513): 99.7%
STE20-like serine/threonine-protein kinase (SLK, Homo sapiens, UniProt Q9H2G2): 90.7%
NT-3 growth factor receptor (NTRK3, Homo sapiens, UniProt Q16288): 95.9%
Dual specificity tyrosine-phosphorylation-regulated kinase 4 (DYRK4, Homo sapiens, UniProt Q9NR20): 96.3%
Serine/threonine-protein kinase BRSK1 (BRSK1, Homo sapiens, UniProt Q8TDC3): 94.2%
Casein kinase II subunit alpha' (CSNK2A2, Homo sapiens, UniProt P19784): 109%
Myotonin-protein kinase (DMPK, Homo sapiens, UniProt Q09013): 104%
G protein-coupled receptor kinase 5 (GRK5, Homo sapiens, UniProt P34947): 103%
Proto-oncogene tyrosine-protein kinase receptor Ret (RET, Homo sapiens, UniProt P07949): 93.1%

Study 4
Target: Diamine acetyltransferase 1 (Homo sapiens, UniProt P21673)
Action: inhibitor
Concentration: 10 µM
Relative to: control
Quantity: remaining activity
Target sequence (P21673 1-171): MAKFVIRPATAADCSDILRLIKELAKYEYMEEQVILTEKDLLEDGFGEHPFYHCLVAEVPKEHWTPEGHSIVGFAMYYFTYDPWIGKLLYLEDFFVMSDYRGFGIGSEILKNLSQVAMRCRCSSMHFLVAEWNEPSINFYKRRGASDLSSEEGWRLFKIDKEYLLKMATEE
CC1(C)C[C@@H](O)[C@]2(C)CC[C@]3(C)C(=CC[C@@H]4[C@@]5(C)CC[C@H](O)[C@](C)(CO)[C@@H]5CC[C@]43C)[C@@H]2C1: 123%
C[C@@H]1C(=O)O[C@H]2C[C@@]34[C@H]5C[C@@H](C(C)(C)C)[C@]36[C@@H](OC(=O)[C@@H]6O)O[C@@]4(C(=O)O5)[C@]21O: 70.6%
COc1ccc(C(=O)O)cc1O: 86.2%
O=C(O)[C@@H]1CCCCN1: 102%
CCCCCCCCCCCCCCCCCCCCCCCCC(=O)O: 101%
O=C(/C=C/c1ccc(O)c(O)c1)O[C@H]1[C@H](O)C[C@](O)(C(=O)O)C[C@H]1O: 102%
CCCCC1OC(=O)C2=CCCCC21 (centres unmarked): 82.6%

Repeated from above (study 3):
Mitogen-activated protein kinase 10 (MAPK10, Homo sapiens, UniProt P53779): 98.4%
NT-3 growth factor receptor (NTRK3, Homo sapiens, UniProt Q16288): 95.9%
Casein kinase II subunit alpha' (CSNK2A2, Homo sapiens, UniProt P19784): 109%
